Published values pooled from the literature.
Each line is one published result; not all experiments were run side by side. ± gives the spread as reported.

N=C(N)NCCC[C@@H]1NC(=O)[C@H](Cc2c[nH]c3ccccc23)NC(=O)[C@@H](CC2CCCCC2)NC(=O)[C@@H]2CCCN2C(=O)[C@@H](NC(=O)CCc2ccccc2)CCCNC1=O — MRT(0-last) (C57BL/6J mouse, plasma brain; intraperitoneal, 1 mg/kg single dose): 0.66 h
CC(C)CSC(=S)N1CCN(C(=O)/C=C/c2coc3ccccc3c2=O)CC1 — curative effect (tomato spotted wilt virus; viral infection, half-leaf method; Nicotiana glutinosa; 500 µg/mL): 48.3 ± 3.5%
CC(=O)N[C@H](CCNC(=O)c1cc(NC(=O)c2cc(NC(=O)c3cc(NC(=O)c4nccn4C)cn3C)cn2C)cn1C)C(=O)Nc1cn(C)c(C(=O)Nc2cc(C(=O)Nc3cc(C(=O)Nc4cc(C(=O)NCCCN(C)CCCN[14C](=O)c5cccc([14C](=O)O)c5)n(C)c4)n(C)c3)n(C)c2)n1 — tissue concentration (NSG male mice, A549 xenograft, A549 tumour; intraperitoneal, 20 nmol per animal, 24 h, 3 or 4 weeks after engraftment): 0.23 mg/kg
CCN(CC)CCN=S(=O)(c1ccccc1)N1CCCCC1 (stereo not drawn) — chromatographic logD (HPLC; pH 7.5): 1.9
CCCC(CCC)NC(=O)c1ccc(O)c(O)c1 — Tmax (male Sprague-Dawley rat, plasma; oral, 50 mg/kg of parent drug): 0.44 h
Cc1cn(-c2ccc(-c3cc(C)c(N[C@@H](C)c4ccc(F)cc4)nn3)nc2O[11CH3])cn1 — parent compound in plasma (rhesus macaque, male, arterial plasma; intravenous, 2 mCi, 60 min): ~60%
CC[C@H](C)[C@@H]1NC(=O)[C@H](Cc2ccccc2)NC(=O)[C@@H](NC(=O)[C@H](CCCNC(=N)N)NC(=O)[C@H](Cc2ccccc2)NC(=O)[C@H](Cc2ccccc2)NC(=O)[C@H](CCCCN)NC(=O)[C@H](CO)NC(=O)[C@H](CC(C)C)NC(=O)[C@H](CCCNC(=N)N)NC(=O)[C@H](CCSC)NC(=O)[C@H](C)N)CCCCNC(=O)NCCCC[C@@H](C(=O)N[C@@H](CCCNC(=N)N)C(=O)N[C@@H](CCCCN)C(=O)N[C@@H](CCCCN)C(=O)O)NC(=O)[C@H](CC(C)C)NC1=O — helicity (circular dichroism; 20% TFE in PBS; 200 µM, pH 7.4, 25 °C): 12.3%
O=c1c(/C=N/NC(=S)N/N=C/c2cc(Cl)ccc2O)coc2ccccc12 — peak current ratio ipa/ipc (cyclic voltammetry; DMF; Cu2+ complex): 0.071
CC(C)(O)c1ncc([S@](N)(=O)=NC(=O)Nc2c3c(cc4c2CCC4)CCC3)s1 — Tmax (healthy human; oral, 30 mg once daily, day 14, capsule formulation, median): 1.5 h
CC(=O)N[C@H](C)c1cc(Cl)ccc1Cn1c(=S)[nH]c(=O)c2[nH]ccc21 — exposure ratio (dog, both sexes, plasma; oral, 100 mg/kg/day; relative to: dog over human 10 mg): 0.3
CC[C@H](C)[C@H](NC(=O)[C@H](Cc1ccccc1)NC(=O)[C@H](CC(=O)O)NC(=O)[C@@H]1CCCCNC(=O)NCCCC[C@H](NC(=O)[C@H](CC(C)C)NC(=O)[C@H](CCCNC(=N)N)NC(=O)[C@H](CCSC)NC(=O)[C@H](C)N)C(=O)N[C@@H](CCCCN)C(=O)N[C@@H](Cc2ccccc2)C(=O)N[C@@H](Cc2ccccc2)C(=O)N1)C(=O)N[C@@H](CC(C)C)C(=O)N[C@@H](CCC(N)=O)C(=O)N[C@@H](CCCNC(=N)N)C(=O)N[C@@H](CCCCN)C(=O)N[C@@H](CCCCN)C(=O)O — helicity (circular dichroism; 20% TFE in PBS; 200 µM, pH 7.4, 25 °C): 13.6%
Cc1ccc(NCc2cn(-c3ccc(S(N)(=O)=O)cc3)nc2-c2ccc(OCc3ccccc3)cc2)cc1 — ulcer severity index (Wistar rat, gastric mucosa; oral, 60 mg/kg, 17 h; relative to: vehicle): 0.81 ± 0.3
CC(C)[C@H](NC(=O)CNC(=O)[C@H](CCC(N)=O)NC(=O)[C@H](C)N)C(=O)O — AUC(0-inf) (LC-MS/MS; human, plasma; intravenous, 30 mg/kg three times daily, day 2, first dose, 10 min infusion, geometric mean): 560 ng·h/mL
CSCOC1C(=O)C2(C)C(OCSC)CC3OCC3(OC(C)=O)C2C(OC(=O)c2ccccc2)C2(O)CC(OC(=O)C(O)C(C=C(C)C)NC(=O)OC(C)(C)C)C(C)=C1C2(C)C (stereo not drawn) — Cmax (male Sprague-Dawley rat, plasma; intravenous, 1 mg/kg): 66 ng/mL
CN(C)CCn1c2ccc([N+](=O)[O-])cc2c(=O)n1Cc1ccccc1 — CC50 (resazurin; peritoneal macrophages, BALB/c mice; 48 h, 10% FBS): 178 ± 13.9 µM
COCCOCCOCCOCCC(=O)NCc1cc(CNC(=O)CCOCCOCCOCCOC)cc(-c2cc3cc4nc(c(-c5ccc(CCC(=O)O)cc5)c5[nH]c(cc6nc(c(OC)c2[nH]3)CC6(C)C)cc5-c2cc(CNC(=O)CCOCCOCCOCCOC)cc(CNC(=O)CCOCCOCCOCCOC)c2)CC4(C)C)c1 — integrated Qy/B absorption ratio (DMF; room temperature): 0.48
CCc1nc(N)nc(N)c1C#C[C@H](C)c1cc(-c2cc(C)nc(C)c2)ccc1Cl — oral bioavailability (mouse, plasma; oral, 16 mg/kg): 18.6%
CC(C)(Sc1ccncc1-c1ccc(C#N)c2ccccc12)C(=O)OC1OC(C(=O)O)C(O)C(O)C1O (stereo not drawn) — AUC(0-inf) ratio (plasma; oral, 15 mg, mild renal impairment; relative to: impaired over normal renal function): 115%
Cn1c(=O)oc2ccc(-c3ccc(CC(C#N)NC(=O)C4CNCCCO4)c(F)c3)cc21 (stereo not drawn) — AST increased incidence (human; oral, 40 mg once daily, TEAE, multiple ascending dose): 11.1%
Cc1cccc(O[C@H]2CCC[C@@H](C(C)CNCc3ccncc3)C2)c1 (relative stereo) — AUC(0-inf) (C57BL/6 mouse female, brain; oral, 25 mg/kg): 8820 ng·h/mL
CCCC[C@H](NC(C)=O)C(=O)N[C@H]1CC(=O)NCCCC[C@@H](C(=O)N[C@@H](C(=O)N2CCC[C@@H]2C(N)=O)C(C)C)NC(=O)[C@H](Cc2c[nH]c3ccccc23)NC(=O)[C@H](CCCN=C(N)N)NC(=O)[C@@H](Cc2ccc3ccccc3c2)NC(=O)[C@@H]2CCCN2C1=O — plasma histamine (healthy dogs, plasma; subcutaneous, 2.25 mg/kg per day, day 1, 4 h post-dose, median): 11.2 ng/mL
[11CH3]n1cc(Cc2ccc(OC(F)F)c(-c3cccc(Cl)c3)n2)cn1 — fraction unbound (ultrafiltration; monkey, plasma): 1.4%
CC(C)(O)c1ccc(N2Cc3c(ccnc3-c3ccc(F)cc3OCC(F)(F)F)C2=O)cc1 — MRT (male C57BL/6 mouse, plasma; oral, 10 mg/kg, single dose): 8.1 h
O=C(NC12CC3CC(CC(Cl)(C3)C1)C2)NC12CC3CC(CC(Cl)(C3)C1)C2 — fold solubility increase (sodium phosphate buffer; relative to: daunorubicin): ~20 fold
CN1CCC(Cn2nc(-c3ccc4nc(O)ccc4c3)c3c(N)ncnc32)CC1 — plasma concentration (piglets, crossbred; oral, 10 mg/kg twice daily, 2 h before dose 9, 7 days post infection): 200 ± 10 nM
C[Si](C)(C)C[C@@H](CN)CC(=O)O — concentration (male Sprague-Dawley rat, brain; oral, 30 mg/kg, 1 h, single dose): 1400 nM
CCN(CC)CCCSC(=S)N1CCN(C(=O)/C=C/c2coc3ccc(F)cc3c2=O)CC1 — inactivation effect (tomato spotted wilt virus; viral infection, half-leaf method; Nicotiana glutinosa; 500 µg/mL): 62.4 ± 2.6%
[11CH3]c1ccc2nc(C3CCC3)n(-c3ccc4[nH]ncc4c3)c2n1 — absorbed dose (extrapolated from mouse; standard human, heart wall): 4.9 µSv/MBq
CC(C)[C@H](NC(=O)[C@@H]1CCCN1C(=O)[C@H](CCCNC(=N)N)NC(=O)[C@H](CS)NC(=O)[C@H](Cc1c[nH]c2ccccc12)NC(=O)[C@H](CCCNC(=N)N)NC(=O)[C@@H](Cc1ccccc1)NC(=O)[C@H](Cc1c[nH]cn1)NC(=O)[C@H](CCC(=O)O)NC(=O)[C@H](CS)NC(=O)[C@H](CS)NC(=O)[C@@H]1CC(=O)N[C@@H](CCCNC(=N)N)C(=O)NCC(=O)N[C@@H](CC(=O)O)C(=O)N[C@H](Cc2ccc(O)cc2)C(=O)N1)C(N)=O [technetium-99m labelled] — tissue uptake (C57 mouse, female, B16/F1 melanoma, lung; intravenous, 0.037 MBq, 4 h): 0.63 ± 0.29 %ID/g
C=C(C)C(=O)Nc1ccc(-c2c(-c3ccc(Oc4nccc(C)n4)cc3)c3c(N)ncnc3n2C)cc1 — Vd (cynomolgus monkey, plasma; intravenous): 0.2 L/kg
